Experimental data from different studies.
Numbered parts are unrelated; each lists some results of a single study.

Block 1 — technique: universal PBM; form: double-stranded DNA, one strand shown; sample: in vitro; concentration: not given; reading: higher = stronger binding
Target: Sal-like protein 4, full length isoform B (SALL4, Homo sapiens, UniProt Q9UJQ4-2, residues 1-616)
Setting: 8-mer, flanks averaged, mean of replicates
The E-score of `CGGGGGCC` is reported as -0.428.
`AGGTCTAT` gave an E-score of 0.0743.
The E-score of `TCGGCCCA` is reported as -0.287.
For `CCCGTACA`, the E-score was -0.177.
With `GTCGGGTA` the E-score was -0.17.
The E-score of `GCCGAATA` is reported as -0.0205.
For `GCTGGTTA`, the E-score was 0.0171.
`GCTCGTCC` gave an E-score of -0.212.
`CGATAGCC` has an E-score of -0.0749.
For `ACCAGAGT`, the E-score was -0.0949.
With `GGACTCCA` the E-score was -0.15.
`ATACTCGC` gave an E-score of -0.0141.
`ATTACAAC` gave an E-score of 0.231.
With `CCCGTAGA` the E-score was -0.268.
`AAATCAAG` gave an E-score of 0.127.
With `AGGACCCA` the E-score was -0.271.
With `AAAGACTC` the E-score was -0.0153.
For `CACCTAGG`, the E-score was -0.207.
For `CTTGGACC`, the E-score was -0.297.
`CGGCGGAG` has an E-score of -0.319.

Block 2 — technique: RNA Bind-n-Seq; form: RNA; sample: in vitro; concentration: 1 µM; setting: whole 134-nt RNA, ends assumed; added: 150 mM KCl; reference: input library; reading: higher = stronger binding
Target: Ras GTPase-activating protein-binding protein 1, C-terminal RGG region (G3BP1, Homo sapiens, UniProt Q13283)
Sequence of UniProt Q13283 (whole entry, looked up): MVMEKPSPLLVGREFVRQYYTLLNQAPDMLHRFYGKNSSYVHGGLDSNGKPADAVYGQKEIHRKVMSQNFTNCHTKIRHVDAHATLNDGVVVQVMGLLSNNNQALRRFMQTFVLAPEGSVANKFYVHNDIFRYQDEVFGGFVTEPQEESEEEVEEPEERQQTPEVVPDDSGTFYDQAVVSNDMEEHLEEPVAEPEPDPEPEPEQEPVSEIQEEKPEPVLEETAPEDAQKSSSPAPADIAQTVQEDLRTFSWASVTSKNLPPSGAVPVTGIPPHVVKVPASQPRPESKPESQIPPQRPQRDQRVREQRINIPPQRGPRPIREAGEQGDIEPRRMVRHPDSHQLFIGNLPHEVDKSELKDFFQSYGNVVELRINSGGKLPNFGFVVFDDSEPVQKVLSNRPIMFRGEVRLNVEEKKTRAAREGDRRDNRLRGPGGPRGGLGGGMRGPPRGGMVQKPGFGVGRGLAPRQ
All sequences stand within: GGGAGUUCUACAGUCCGACGAUC … UGGAAUUCUCGGGUGUCAAGG
For `CAAGUCCUGUGCUACACAUCGUAUGUACCGAAUCGGUUUGGUUUGGGGUUUGGGGAAAGUAUUAUGUUACGCCGUUCGGAUCUGCACUUC`, the log2 enrichment was -0.752.
For `UCCUGUGCUACACAUCGUAUGUACCGAAUCGGUUUUUUGGGGUUUUUUGGGUUUUUUGGGAAAGUAUUAUGUUACGCCGUUCGGAUCUGC`, the log2 enrichment was -0.532.
For `AGUCCUGUGCUACACAUCGUAUGUACCGAAUCGGAAAAAAAGGUUUUUUUGGUUUGGAAAGUAUUAUGUUACGCCGUUCGGAUCUGCACU`, the log2 enrichment was -2.55.
`GUCCUGUGCUACACAUCGUAUGUACCGAAUCGGGGAAAAAGGGGUUUUUGGGGAGGGGAAAGUAUUAUGUUACGCCGUUCGGAUCUGCAC` gave a log2 enrichment of 1.58.
`UGCUGGAGAUGCAAUAUAUGAGGUGGUGAGUCUACAGCGAGAGUCUGACAAGGAGGAACCAGUCACUCCUACUAGUGGAGGGGGUCCAAU` has a log2 enrichment of -1.73.
The log2 enrichment of `UCCUGUGCUACACAUCGUAUGUACCGAAUCAAAUUUUUUUAAACCCCCAAAUUUUUAAAAAAGUAUUAUGUUACGCCGUUCGGAUCUGCA` is reported as -0.265.
`UGUGCUACACAUCGUAUGUACCGAAUCGGGGUUUUUUUGGGGUUUUUGGGGUUUUUUUGGGGAAAGUAUUAUGUUACGCCGUUCGGAUCU` has a log2 enrichment of -0.118.
The log2 enrichment of `CAAGUCCUGUGCUACACAUCGUAUGUACCGAAUCGGGUGGGUUUUUGGGUUUGGGAAAGUAUUAUGUUACGCCGUUCGGAUCUGCACUUC` is reported as 0.528.
The log2 enrichment of `UGGGAGGUGGAUUUUGUUUAUUUUUUUAGCUCAUUUCCAGGGGUGGGAAUUUUUUUUUAAUAUGUGUCAUGAAUAAAGAUGUUUUUGAAA` is reported as 3.11.
`UCAAGUCCUGUGCUACACAUCGUAUGUACCGAAUCGGGAAAGGGUGGGAAAGGGAAAGUAUUAUGUUACGCCGUUCGGAUCUGCACUUCC` gave a log2 enrichment of 1.68.
The log2 enrichment of `UCCUGUGCUACACAUCGUAUGUACCGAAUCGGGGUUUUUUUGGGGUUUUUGGGGAGGGGAAAGUAUUAUGUUACGCCGUUCGGAUCUGCA` is reported as 1.16.
With `AGUCCUGUGCUACACAUCGUAUGUACCGAAUCGGGCCCCCGGGCCCCCGGGCCCCCGGAAAGUAUUAUGUUACGCCGUUCGGAUCUGCAC` the log2 enrichment was -2.
The log2 enrichment of `CACAGACAACACGCACCCACACAGACACAGAGGGAAGGGGUUAGGAUGGGGACAGGGUGCACAGCAGGGCGGGGUAGGACCCCAGCCCCU` is reported as 0.0713.
With `UUUGAAGGUGAUUUCUGGCCCAAUGUGUUAGAAGAGAGCAUUAAGGAACUAGAACAAGAAGAAGAGGAGAGGAAAAAGGAAGAGAGCACU` the log2 enrichment was -1.49.

Block 3 — technique: RNA Bind-n-Seq; form: RNA; sample: in vitro; concentration: 365 nM; reference: no-protein control; reading: higher = stronger binding
Target: RNA binding protein fox-1 homolog 2, RRM domain, GST-SBP tag (RBFOX2, Homo sapiens, UniProt O43251-10, residues 100-194)
Setting: natural RNA segment, single round, ends assumed
All sequences stand within: GGGAGUUCUACAGUCCGACGAUC … UGGAAUUCUCGGGUGCCAA
Target sequence (chain): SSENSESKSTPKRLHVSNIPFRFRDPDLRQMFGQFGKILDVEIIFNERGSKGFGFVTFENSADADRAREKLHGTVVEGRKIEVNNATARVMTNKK
`GCUUAGUGAUACAAAUACAUUUCUCUGUAGACUUCCUUAAGGAAAGACGUGAGUAGAGCUAGGUUGGGCAGAUGGACAGGUGGCAAUAGUAAGCUUAUCCGAAGCCUACA`: “RBNS enrichment (R)” 0.31.
`UGAAAAAGAAAACAUAGGUCUCUUAAACCAGGCAGCAUCCACAUUCUGGAAGUUGAUAGUGAACAGUUCUCCGUGUAACAGUGACUCUCCAUGAAAUUCCGUUUCCUCUG` — result for “RBNS enrichment (R)”: 0.228.
Under “RBNS enrichment (R)”, `CCACAUCUACCGGUACUUGCCUAAACCCUGACUGUGCCAUCCCAAAGGCCUUGAUGUGAAUUUUCUUUGGUACAAAUAGGAAUGGCCCACUGAGGCAGAGGAGUAAGAGU` is recorded as 0.433.
For `UAAAUUGAUGUGUUAUUAUGUCAAAAGCCGGAUCUAUUAAAGAAACAAUUGGCCUUUCUGAGCUGAUUUUUCCAUCUUUUGUAAUUAUCUUUAUUAAAAAAUUGUACUUG`, “RBNS enrichment (R)” read 0.473.
`UUAUAUGACUAAACUACUAGUCAAUACAGCUUGCAAUAAUAGUGCAUGAAUGAUAACAGGCCUCGGCUUUAUCACCCAAAAAAUAACUUGAAUUCUAUGUGAAAUGUGUU`: “RBNS enrichment (R)” 5.89.
`UUGAGCACCGGGCCCUGCUCCUCACCUACACUCCCCUUCAAGGAUGCUAUUUAUAUUUGUAUUUAUUAAUAUUAUUAAUUUAUUGGGGUCGGGCUGGGUGGAUGGAUUGU`: “RBNS enrichment (R)” 1.08.
For `AAGGUCUAAUCAUAAGACAAUUGUUUUUUUGUGCAUAGUUUUCAUCUAAAAUUAAGUUUACCAAAGGCAAAUAACUGCUUACUAGGAACUUCCUUUAGCAAAAAUUACUA`, “RBNS enrichment (R)” read 0.334.
`CAGGAGCAACUGUCCAGCCCUCCAGAAGAGACAGCAAGCAGCCCCCCUACCCACUCUGGCCUCCCCAAUGGUACUUUGACCUCCAGUGUAGGGCUAUACUAUACAUAUAU`: “RBNS enrichment (R)” 0.34.
Under “RBNS enrichment (R)”, `UGACCCUUGCUCCCUGCUACACAGAGCAUCGCAGGGCUGGCCUGUGUGGUUUCCAGAUGAGGGUCUGGGUCCCGGAAGCUUGUGUUGAGAGCUCAGUGGACCCACCCCGC` is recorded as 0.656.
`GACAAGCCAUCCAUCCCCCAUGGGAGAGGAGACAGUGUGGCAUCUGGGCCCAGCCCAGGGUCUGACUAUCCUAGGCGUCUUCUGAGAAGGCUUUUUCAGGGAAAACAAAC` — result for “RBNS enrichment (R)”: 0.312.
Under “RBNS enrichment (R)”, `CCAGUAUGUGUCUUCUUCUCCAGAUAGUGAAAAAGGUGUCCAGAUAAACCCACCUAAGUGAAAUGGCCAUCCUCUAAACUGGGUACCUCACUGCACAGCUUCUAGGUAGC` is recorded as 0.401.
`UUCAGCUGCCUCACUUCCUGCAAGAUUGGCCUGUGGCAUCUUUGCCUUGGGUGUUGGCCACAGGGUCAAGGGACUCUGGCCUCAGCCCAGAAGUGAGGGGAAGCUAUACA` — result for “RBNS enrichment (R)”: 1.28.

Block 4 — technique: protein-binding microarray; form: double-stranded DNA, one strand shown; sample: in vitro; concentration: 940 nM top; setting: 60-bp whole probe; added: salmon DNA 0.4 mg/ml; reference: random background probes; reading: higher = stronger binding; all sequences stand within: GCCTAGCAC … GTCTTGATTCGCTTGACGCTGCTG
Target: Interferon regulatory factor 5, full length, phosphomimetic (IRF5, Homo sapiens, UniProt Q13568-2, residues 1-514, S451D/S453D/S456D/S462D)
`TTAGGTATCCTTATCCTTTAGTGCTAG` — result for “fitted relative affinity”: 0.517 z-score.
For `TTAGGTATCGGTCTCGGTTTGTGCTAG`, “fitted relative affinity” read 9.92 z-score.
`GACGGTATCGGGCTTCGGGACGTGCTA`: “fitted relative affinity” 2.69 z-score.
Under “fitted relative affinity”, `TTAGGACTTGGGACTGGGTTAGTGCTA` is recorded as -0.532 z-score.
For `TCAAGGCTGTGTTTTCACACTGTGCTA`, “fitted relative affinity” read -0.596 z-score.
For `TCAGAACTGGGGACTGGATTAGTGCTA`, “fitted relative affinity” read -0.288 z-score.
`TTAGGTATCCTTATCTTTTAGTGCTAG` — result for “fitted relative affinity”: 0.519 z-score.
`TTAGATATCAGTATCGATTTGTGCTAG`: “fitted relative affinity” 4.14 z-score.
`GATGGTATCGACTATCGGGACGTGCTA` — result for “fitted relative affinity”: 5.68 z-score.
`TTAGGTATCCTGATCCTTTAGTGCTAG` — result for “fitted relative affinity”: -0.553 z-score.
`GAAGGTTTCCTTATCCTGACGTGCTAG` — result for “fitted relative affinity”: 1.16 z-score.
`TGGAATTTCCCTCTCCCCTCGTGCTAG`: “fitted relative affinity” 0.179 z-score.
Under “fitted relative affinity”, `GACTATTTCAGTTCCGAGACGTGCTAG` is recorded as 0.727 z-score.
`GACGGTTTCGGTTTCGGGTCGTGCTAG`: “fitted relative affinity” 16.9 z-score.
For `TTAGGTATCGGGACTGGGTTTGTGCTA`, “fitted relative affinity” read 4.52 z-score.
For `GACGGTTTCGACTATCGGTACGTGCTA`, “fitted relative affinity” read 8.36 z-score.
`TAAGATATCGGGTATCGATTAGTGCTA` — result for “fitted relative affinity”: 3.24 z-score.
Under “fitted relative affinity”, `TTAGGTATCCATTTCCTTTAGTGCTAG` is recorded as 0.679 z-score.
For `GACTGACTGCTTCTCCTGACGTGCTAG`, “fitted relative affinity” read 0.268 z-score.
Under “fitted relative affinity”, `GACGATATCGGGTTTCAAGACGTGCTA` is recorded as 0.378 z-score.

Excerpt of the above (block 2):
For `UCCUGUGCUACACAUCGUAUGUACCGAAUCGGUUUUUUGGGGUUUUUUGGGUUUUUUGGGAAAGUAUUAUGUUACGCCGUUCGGAUCUGC`, the log2 enrichment was -0.532.
For `AGUCCUGUGCUACACAUCGUAUGUACCGAAUCGGAAAAAAAGGUUUUUUUGGUUUGGAAAGUAUUAUGUUACGCCGUUCGGAUCUGCACU`, the log2 enrichment was -2.55.
`GUCCUGUGCUACACAUCGUAUGUACCGAAUCGGGGAAAAAGGGGUUUUUGGGGAGGGGAAAGUAUUAUGUUACGCCGUUCGGAUCUGCAC` gave a log2 enrichment of 1.58.
`UGCUGGAGAUGCAAUAUAUGAGGUGGUGAGUCUACAGCGAGAGUCUGACAAGGAGGAACCAGUCACUCCUACUAGUGGAGGGGGUCCAAU` has a log2 enrichment of -1.73.
The log2 enrichment of `UCCUGUGCUACACAUCGUAUGUACCGAAUCAAAUUUUUUUAAACCCCCAAAUUUUUAAAAAAGUAUUAUGUUACGCCGUUCGGAUCUGCA` is reported as -0.265.
`UGUGCUACACAUCGUAUGUACCGAAUCGGGGUUUUUUUGGGGUUUUUGGGGUUUUUUUGGGGAAAGUAUUAUGUUACGCCGUUCGGAUCU` has a log2 enrichment of -0.118.
The log2 enrichment of `CAAGUCCUGUGCUACACAUCGUAUGUACCGAAUCGGGUGGGUUUUUGGGUUUGGGAAAGUAUUAUGUUACGCCGUUCGGAUCUGCACUUC` is reported as 0.528.
The log2 enrichment of `UGGGAGGUGGAUUUUGUUUAUUUUUUUAGCUCAUUUCCAGGGGUGGGAAUUUUUUUUUAAUAUGUGUCAUGAAUAAAGAUGUUUUUGAAA` is reported as 3.11.
`UCAAGUCCUGUGCUACACAUCGUAUGUACCGAAUCGGGAAAGGGUGGGAAAGGGAAAGUAUUAUGUUACGCCGUUCGGAUCUGCACUUCC` gave a log2 enrichment of 1.68.
The log2 enrichment of `UCCUGUGCUACACAUCGUAUGUACCGAAUCGGGGUUUUUUUGGGGUUUUUGGGGAGGGGAAAGUAUUAUGUUACGCCGUUCGGAUCUGCA` is reported as 1.16.
